Experimental data of several laboratories.
Parts stem from different laboratories: compare values within a part only.

Series 1
Target: RNA binding protein fox-1 homolog 2, RRM domain, GST-SBP tag (RBFOX2, Homo sapiens, UniProt O43251-10, residues 100-194)
Method: RNA Bind-n-Seq
Form: RNA
Medium: in vitro
Concentration: 365 nM
Setting: natural RNA segment, single round, ends assumed
Baseline: no-protein control
Direction: higher = stronger binding
Endpoint: RBNS enrichment (R)
Shared flanks, not repeated: GGGAGUUCUACAGUCCGACGAUC … UGGAAUUCUCGGGUGCCAA
Residues (chain): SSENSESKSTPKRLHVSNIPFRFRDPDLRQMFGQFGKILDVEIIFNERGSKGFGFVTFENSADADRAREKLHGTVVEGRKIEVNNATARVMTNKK
Oligonucleotide = GAGCCUCAUGCUCAUGAAAUCAUGGUCCCAGGCGGCUCCACCUCAAAGAGAAAGCCUGGAAGGAAAUGUUCCAACUCCUUAGAAGGGUCGUGCAAGCUGCUGUGGGAGGG; value = 0.324
Oligonucleotide = GCCAUUGUCAUAGCACAGAGAUUUCAGAAGCACCUGCAGGUGGCUUGCUUGGGAUGUUGCUGUCCCUGGGUCAGCCUUCCAUUCUGCUUUCCUGUCUUCCCGUCUGCCUU; value = 0.388
Oligonucleotide = CAUCUCAGCCAGCAGAUCUGCUCCCUUCUGGGACCCAGGCUUCAGUGUCACACGGUCCUUGGCUAUGUAUUGGGCGUUGGAGGCUUUGAAAGGCGAGCAGAAGCAGCAUG; value = 3.65
Oligonucleotide = GCCUUAUGUGUGUCGUUAACAUUUAUAUUUUCAUUCAAAAUAUGUAUUCAGUGUUUAUUUCCUUAAACAGACUUUGUUAAUUUAGGAAAUAUCUCCAAGUGGAAACGUGC; value = 0.307
Oligonucleotide = CGUUAAAUUUUCAGUCCAGUUAUGAACAGCAAGUGUUGAACUCUUUCUGCUUGUUUUGAUUCAAAGUGCAGUUACUGAUGUUGUUUUGAUUAUGCAACUAAGUAGGCCUC; value = 0.988
Oligonucleotide = CUUUGGAAAUAAUGACAUAAUAAGAAUUAGACUAUUUCUCAACUUUCUUAAGCGACUACAUCAUAUUUUAAAAUAUUAAUCCUUCAAUAAAGUGGCAAGUAUAAGAAAAU; value = 0.474
Oligonucleotide = UAAUUUUUGUUUAUUUAUUGUGAGCUUUUUACUUUAAGAUUUUACAUGAGUAAUCAAAAUUAAAUUAUAGCAUAAUGAAAUUAGACUCUUAACAGGUACGGCACACACAA; value = 0.847
Oligonucleotide = AGAAAUGCUUUCAGUUACCAAAGUUAUAACGAUAUAUUUAGGAAAAGCUACAAAUAACACUUACUUUGAAUCCUGCUGUCAAAUGUCUGCAUCAAGAUAGCACCCCUUUG; value = 1.06
Oligonucleotide = UGCAGUCAGUGGUGUAUGCUUGUAAUCCCAGCCCUGGGGAGGCAGAGAAAAAUACCUAAGGCUCAGGCUCACCAGCUCAGCCAAAUCUGCAAGUACCAGACCAGUGAACA; value = 0.369
Oligonucleotide = GGAAAGGAAUUUUGCACUUAGCCAUGGUCGGGUUGGAAGCAAAGCCUUGGGCUUUUCCUGUCCCUAGGUGCUGAGCCCCAAUCCCCCUUUCCUCCUGAGAACUCAUGUUG; value = 0.283
Oligonucleotide = GUGUAUAAUUGGAGUAGAUAUUAAUUAAGUCACCUGUAUAAUGUUUUGUAAUUUUGCAAAACAUAUCUUGAGUUGUUUAAACAGUCAAAAUGUUUGAUAUUUUAUACCAG; value = 0.532
Oligonucleotide = ACAGCUCACAGCCAGCUGUUAGGACCCCACCCUUCUCCCUUUAUUGUGGAGGUGACUCACAGCAGACUGACAGUGGUCAGGCUGAGCUUUCUGCUAAGGUGGUGAGGUCG; value = 0.26

Series 2
Target: Sal-like protein 4, full length isoform A (SALL4, Homo sapiens, UniProt Q9UJQ4, residues 1-1053)
Sequence of UniProt Q9UJQ4 (whole entry, looked up): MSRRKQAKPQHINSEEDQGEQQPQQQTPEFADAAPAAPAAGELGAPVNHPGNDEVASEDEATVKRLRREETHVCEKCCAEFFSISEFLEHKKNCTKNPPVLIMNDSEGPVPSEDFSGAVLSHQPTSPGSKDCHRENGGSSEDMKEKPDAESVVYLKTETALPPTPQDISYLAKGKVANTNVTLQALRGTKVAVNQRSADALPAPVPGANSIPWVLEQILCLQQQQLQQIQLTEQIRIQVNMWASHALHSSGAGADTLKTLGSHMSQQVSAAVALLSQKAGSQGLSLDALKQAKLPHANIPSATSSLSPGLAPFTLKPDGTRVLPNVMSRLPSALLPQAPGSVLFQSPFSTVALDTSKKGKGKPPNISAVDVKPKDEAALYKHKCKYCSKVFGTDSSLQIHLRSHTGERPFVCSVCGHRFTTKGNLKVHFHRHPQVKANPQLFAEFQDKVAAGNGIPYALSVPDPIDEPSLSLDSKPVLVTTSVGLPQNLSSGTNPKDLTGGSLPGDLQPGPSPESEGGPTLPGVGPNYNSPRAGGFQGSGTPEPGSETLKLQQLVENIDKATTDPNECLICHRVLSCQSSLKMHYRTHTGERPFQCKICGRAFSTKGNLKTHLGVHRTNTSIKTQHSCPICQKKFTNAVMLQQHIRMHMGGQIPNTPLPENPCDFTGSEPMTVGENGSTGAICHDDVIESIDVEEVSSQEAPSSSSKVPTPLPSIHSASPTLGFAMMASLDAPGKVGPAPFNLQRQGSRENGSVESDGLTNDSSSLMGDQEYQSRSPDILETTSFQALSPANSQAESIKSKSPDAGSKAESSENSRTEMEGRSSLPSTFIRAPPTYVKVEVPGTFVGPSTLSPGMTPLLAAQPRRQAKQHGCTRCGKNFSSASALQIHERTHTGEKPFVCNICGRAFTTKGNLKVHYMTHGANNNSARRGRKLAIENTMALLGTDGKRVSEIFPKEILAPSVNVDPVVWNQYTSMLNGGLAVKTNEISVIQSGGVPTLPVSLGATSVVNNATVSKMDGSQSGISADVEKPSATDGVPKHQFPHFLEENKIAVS
Method: universal PBM
Form: double-stranded DNA, one strand shown
Medium: in vitro
Concentration: 600 nM
Setting: 8-mer, flanks averaged, mean of replicates
Direction: higher = stronger binding
Endpoint: E-score
Oligonucleotide = CATCTTAA; value = 0.144
Oligonucleotide = AGTGACAA; value = 0.13
Oligonucleotide = ATTTTAGC; value = 0.144
Oligonucleotide = ATGACCTC; value = -0.125
Oligonucleotide = CTCGCAAA; value = -0.0468
Oligonucleotide = TACGAATA; value = 0.285
Oligonucleotide = CAACGCTC; value = -0.137
Oligonucleotide = GAAGGATA; value = 0.00443
Oligonucleotide = ACTATTGA; value = 0.264
Oligonucleotide = ACACATTA; value = 0.223
Oligonucleotide = CCCCAGAA; value = -0.218
Oligonucleotide = CATCGCCA; value = -0.0209
Oligonucleotide = AACCTCCT; value = -0.0362
Oligonucleotide = ACATCTTG; value = 0.07
Oligonucleotide = AACTATGG; value = 0.101
Oligonucleotide = CCTAAAAG; value = -0.191
Oligonucleotide = ACAAAGTC; value = -0.098

Series 3
Target: Histone acetyltransferase KAT6A, both winged helices, GST fusion (KAT6A, Homo sapiens, UniProt Q92794, residues 1-181)
Method: protein binding microarray
Form: double-stranded DNA, one strand shown
Medium: in vitro
Concentration: not given
Setting: 8-mer, flanks averaged, mean of 2 arrays, mostly near background
Baseline: not given
Direction: higher = stronger binding
Endpoint: E-score
Construct (chain): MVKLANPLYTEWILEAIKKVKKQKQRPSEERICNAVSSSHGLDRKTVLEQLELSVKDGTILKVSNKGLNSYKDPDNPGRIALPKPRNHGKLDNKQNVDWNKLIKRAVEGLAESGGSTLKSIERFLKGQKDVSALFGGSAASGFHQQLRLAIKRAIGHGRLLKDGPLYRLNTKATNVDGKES
Oligonucleotide = CACAGCAC; value = 0.0114
Oligonucleotide = AAAACCTT; value = -0.12
Oligonucleotide = CGGCGGTC; value = 0.253
Oligonucleotide = ATCTTAAT; value = -0.116
Oligonucleotide = CGGGTCCA; value = 0.0751
Oligonucleotide = CTAAGTTC; value = -0.176
Oligonucleotide = GGTCTAAC; value = -0.0321
Oligonucleotide = GGGCTACC; value = -0.0793
Oligonucleotide = CCGGTTCC; value = 0.166
Oligonucleotide = GACACCAC; value = -0.00225
Oligonucleotide = ACCGTTCA; value = 0.0655
Oligonucleotide = AATAATAT; value = -0.0088
Oligonucleotide = AATGGCTG; value = -0.165
Oligonucleotide = CCAAGTCC; value = -0.147
Oligonucleotide = ACTCGAAC; value = -0.0808
Oligonucleotide = CAGCTATG; value = -0.167
Oligonucleotide = ATGTGGCC; value = -0.0835
Oligonucleotide = ATGCTTGC; value = -0.00507
Oligonucleotide = ACATGAAC; value = 0.0229
Oligonucleotide = GGACTCAC; value = -0.0342
Oligonucleotide = CAGCACGG; value = 0.141
Oligonucleotide = TCAAGTAA; value = -0.0985
Oligonucleotide = CTGACCTA; value = -0.211
Oligonucleotide = CGTATTGC; value = 0.155
Oligonucleotide = ATTAATAG; value = -0.147

Series 4
Target: RING finger protein unkempt homolog, zinc fingers 1-6, SBP tag (UNK, Homo sapiens, UniProt Q9C0B0, residues 30-357)
Sequence of UniProt Q9C0B0 (30-357, looked up): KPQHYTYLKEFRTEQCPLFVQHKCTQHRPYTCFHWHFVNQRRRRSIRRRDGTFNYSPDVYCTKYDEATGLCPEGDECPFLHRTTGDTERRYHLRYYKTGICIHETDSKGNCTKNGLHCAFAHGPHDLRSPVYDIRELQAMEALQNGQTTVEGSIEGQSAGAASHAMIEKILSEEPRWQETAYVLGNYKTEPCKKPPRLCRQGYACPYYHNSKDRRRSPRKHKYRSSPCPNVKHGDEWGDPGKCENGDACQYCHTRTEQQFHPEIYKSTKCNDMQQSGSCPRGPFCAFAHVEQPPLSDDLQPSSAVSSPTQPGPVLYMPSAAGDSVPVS
Method: RNA Bind-n-Seq
Form: RNA
Medium: in vitro
Concentration: 100 nM
Setting: RNA with constant flanks, vertebrate orthologous sites, ends assumed
Baseline: input RNA pool
Direction: higher = stronger binding
Endpoint: bound/input enrichment
Shared flanks, not repeated: GGGAGUUCUACAGUCCGACGAUC … CAACAGAGGAUUGAGCAUCA
Oligonucleotide = CCCCCCUGAACCCCAUAUCUUCUGUUUCAUAGUGCAGAGUAUUCUCUUCAAUUAUGUUAUUAGUGGACUUGUUUUAAUUUUAGGGAAACUUUCAGUACAGAUACUGUGAGCUUACAUGGA; value = 1.22 ratio
Oligonucleotide = UUCAGGCACAACUGACUGGCUCACAACAUUCCUUACAUAGUUUUCUAUCAAAUACAAGUGUAGCCAAUUUUCAGGAAACAACCAGGCAGUCACCUUUAUCCUGCAGUCCUAUUGGAGAUU; value = 1.15 ratio
Oligonucleotide = GUAUGUAGAGAAAAAUUUUCAUUGACCCCCCCCCAUUGUGAAAUUCCCUAGCAGUUUAUUUAGAAUCUUAAAUUUUCUAAUUAAAGCUCAUUGUAUUAGUCAUUUUUAGCAUAAUUAAAA; value = 4.56 ratio
Oligonucleotide = AUCUGACUGCUGGAUGAAGACUGUUCCAAGUUAUAACCAAACAAAUAGCUCCAUGGACUUUAGAAAUUAUAUGAUGAGAGAUGAGAAUUUGGAACCACUGCCCAAAAACUGGGAAAUGGC; value = 0.978 ratio
Oligonucleotide = GUAUCUUGGUUUGGGGUAGAGGGGAGGGAGGGGCAGGGCUGUGGAAUCUCUCCGGUAUAUGGGUAGAUAAGUGGACCUAUGUUAACCUCUGGGGCAUCUGUUUUGGGGGUGAGUAUGGGU; value = 0.643 ratio
Oligonucleotide = AUCCCAGUUUGUAUGCACAUUAUUCACAUUCCUAUCUGUUGUGUUUGCAGAAAUGACAUUUUACCCUUUUCUAAGGGAUAUCUUUUGAUUUUCAUAUUAUUUGGUUGCAUGGAGUUGCCC; value = 0.459 ratio
Oligonucleotide = UUCAGGCACAACUGACUGGUUCACAGCAUUCCUUACACAGUUAUUUAUCAAGUACAAGUGGAGUUAAUUUUCAGGAUACAUCCAGGCAGUCAGCACUGUCCUGCAGUCCAGUUGGAGAUG; value = 0.357 ratio
Oligonucleotide = AAGAUGGUGGUUGUACAUUAUUUCAUUUAGAAAAUAUAAAAAUUCAUUUUGUUUUGAAGCUAGGUGUUAAACUGGAAUAGCUCUUAUACCCCAGAGAAUGGGGCAGUUGCGCCCUUCCCU; value = 2.19 ratio
Oligonucleotide = GCCAAACAUUUUGACUUUUUUUUUUUCUUUUUCUUUUUCUUUUUCUUUGUUUGGUAGGUCUUGUUCUGUAUACCUGCACCAUUUUAUGUCUCCUUCACUGAAGGGCUAGAGUUUAACUUU; value = 0.598 ratio
Oligonucleotide = UUCACUACCUGAGUCGGGUGGAGGUGACAGAGUUCGAAGACAUCAAGUCGGGCUACAGAAUAGAUUUUUACAGUCAUCCUUCUCGAUAUUCCUCAUACCCGCUACCUACCCUCUUCCCUA; value = 0.328 ratio
Oligonucleotide = AAUAUUGGAUGCAGUGUAAAAUUAUCCAAGGCAGUGACUUCAGCUUUAUAUAUAUAAAAUAUAGUUUUAAAGUUAUUGACAUUUAUUUAAACUUUUAGAUUGGAUUGUUUGCUAUUGCUC; value = 0.667 ratio

Series 5
Target: Prothrombin, mature alpha-thrombin (F2, Homo sapiens, UniProt P00734)
Method: aptamer microarray, sandwich
Form: DNA with 2'F-ANA
Medium: in vitro
Concentration: 200 nM
Setting: whole 15-mer aptamer, many near background
Added: Cy3 exosite-II aptamer, 400 nM
Direction: higher = stronger binding
Endpoint: mean fluorescence intensity
Oligonucleotide: GGTTGGTGTGGTTGG
Modification = 2'F-ANA at 4 5 6 8 9 10 12 14 15; value = 78 a.u.
Modification = 2'F-ANA at 2 4 5 6 10 13 15; value = 48 a.u.
Modification = 2'F-ANA at 1 3 8 9 10 12 14 15; value = 107 a.u.
Modification = 2'F-ANA at 3 4 5 10 11 12 14 15; value = 47.9 a.u.
Modification = 2'F-ANA at 2 3 5 8 9 10 13 14; value = 51.1 a.u.
Modification = 2'F-ANA at 1 2 5 8 9 10 13 14 15; value = 45.5 a.u.
Modification = 2'F-ANA at 2 6 7 9 10 11 14; value = 85.3 a.u.
Modification = 2'F-ANA at 2 3 4 7 12 13; value = 850 a.u.
Modification = 2'F-ANA at 3 4 6 11; value = 487 a.u.
Modification = 2'F-ANA at 1 3 10 11 12 14; value = 60.8 a.u.
Modification = 2'F-ANA at 6 8 11 15; value = 417 a.u.
Modification = 2'F-ANA at 2 3 4 7 11 13 14; value = 339 a.u.
Modification = 2'F-ANA at 1 2 6 7 10 14; value = 45.8 a.u.
Modification = 2'F-ANA at 2 3 5 6 7 10 13 14 15; value = 45.1 a.u.
Modification = 2'F-ANA at 2 4 10 15; value = 101 a.u.
Modification = 2'F-ANA at 1 2 3 5 6 8 10; value = 82 a.u.
Modification = 2'F-ANA at 1 2 3 4 8 9 14 15; value = 74.3 a.u.
Modification = 2'F-ANA at 1 4 7 10 15; value = 50.7 a.u.
Modification = 2'F-ANA at 1 2 3 4 7 8 9 10 12 13 14; value = 53.3 a.u.
Modification = 2'F-ANA at 1 3 4 8 9 11 12 13 14 15; value = 68.9 a.u.
Modification = 2'F-ANA at 2 3 5 8 12 15; value = 237 a.u.
Modification = 2'F-ANA at 1 3 5 7 8 9 11 12 14 15; value = 58.9 a.u.
Modification = 2'F-ANA at 3 5 6 7 9 11 13 14; value = 71.6 a.u.
Modification = 2'F-ANA at 2 3 4 9 10 12 14; value = 166 a.u.
Modification = 2'F-ANA at 5 7 8 10 12; value = 51.2 a.u.

Repeated from above (series 5):
Modification = 2'F-ANA at 2 4 10 15; value = 101 a.u.
Modification = 2'F-ANA at 3 5 6 7 9 11 13 14; value = 71.6 a.u.
Modification = 2'F-ANA at 1 3 8 9 10 12 14 15; value = 107 a.u.
Modification = 2'F-ANA at 1 2 3 5 6 8 10; value = 82 a.u.
Modification = 2'F-ANA at 1 2 6 7 10 14; value = 45.8 a.u.
Modification = 2'F-ANA at 2 3 5 6 7 10 13 14 15; value = 45.1 a.u.
Modification = 2'F-ANA at 2 3 5 8 9 10 13 14; value = 51.1 a.u.
